Assay results from different studies.
Each line is one published result; not all experiments were run side by side. ± marks the error that the study gave.

Structure (SMILES)	system	setting	tissue uptake
CCCC[C@H](NC(=O)COCCOCCNC(=O)CN1CCN(CC(=O)O)CCN(CC(=O)O)CC1)C(=O)N[C@H]1CC(=O)NCCCC[C@@H](C(N)=O)NC(=O)[C@H](Cc2c[nH]c3ccccc23)NC(=O)[C@H](CCCNC(=N)N)NC(=O)[C@@H](Cc2ccccc2)NC(=O)[C@H](Cc2c[nH]cn2)NC1=O [copper-64 labelled]	C57 mouse, normal organs except kidneys	intravenous, 0.37 MBq, 2 h	< 2 %ID/g
CSCC[C@H](NC(=O)[C@H](CC(C)C)NC(=O)[C@H](Cc1c[nH]cn1)NC(=O)CNC(=O)[C@@H](NC(=O)[C@H](C)NC(=O)[C@H](Cc1c[nH]c2ccccc12)NC(=O)[C@H](CCC(N)=O)NC(=O)CCOCCOCCOCCOCCNC(=O)CN1CCN(CC(=O)O)CCN(CC(=O)O)CCN(CC(=O)O)CC1)C(C)C)C(N)=O [indium-111 labelled]	Swiss nu/nu mouse, male, PC-3 tumour xenograft, tumour	intravenous, 10 pmol, 4 h	1.6 ± 0.2 %ID/g
Cc1cc(O)cc(C)c1C[C@H](NC(=O)[C@@H]1CCCN1C(=O)[C@H](CCCNC(=N)N)NC(=O)[C@H](CCCNC(=N)N)N(C)C(=O)[C@@H]1CCCN1C(=O)[C@@H](CC(C)C)NC(=O)[C@@H](CC(C)C)NC(=O)[C@@H](CC(C)C)NC(=O)[C@@H](CC(C)C)NC(=O)[C@H](CCCCN)NC(=O)CN1CCN(CC(=O)O)CCN(CC(=O)O)CCN(CC(=O)O)CC1)C(=O)N[C@H](C(=O)N[C@@H](CC(C)C)C(=O)O)C(C)(C)C [lutetium-177 labelled]	CF-1 mouse, blood	iv, 370 kBq, 4 h	0.04 ± 0.02 %ID/g
CCCC[C@H](NC(=O)CNC(=O)CNC(=O)CN1CCN(CC(=O)O)CCN(CC(=O)O)CCN(CC(=O)O)CC1)C(=O)N[C@H]1CC(=O)NCCCC[C@@H](C(N)=O)NC(=O)[C@H](Cc2c[nH]c3ccccc23)NC(=O)[C@H](CCCNC(=N)N)NC(=O)[C@@H](Cc2ccccc2)NC(=O)[C@H](Cc2c[nH]cn2)NC1=O [lutetium-177 labelled]	C57 mouse, female, spleen	intravenous, 0.037 MBq, 24 h	0.24 ± 0.1 %ID/g
CC(C)C[C@H](NC(=O)CN1CCN(CC(=O)O)CCN(CC(=O)O)CC1)C(=O)N[C@@H](CC(C)C)C(=O)N[C@@H](CC(C)C)C(=O)N[C@@H](CC(C)C)C(=O)N[C@@H](CCCNC(=N)N)C(=O)N[C@H](C(=O)N[C@@H](CCCCN)C(=O)N[C@@H](CCCNC(=N)N)C(N)=O)C(C)C [copper-64 labelled]	CD1 mouse, male, pancreas	intravenous, 15 min	3.3 ± 0.1 %ID/g
Cc1cc(O)cc(C)c1C[C@H](NC(=O)[C@@H]1CCCN1C(=O)[C@H](CCCNC(=N)N)NC(=O)[C@H](CCCNC(=N)N)N(C)C(=O)[C@@H]1CCCN1C(=O)[C@H](CCCCN)NC(=O)[C@@H](CC(C)C)NC(=O)[C@@H](CC(C)C)NC(=O)[C@@H](CC(C)C)NC(=O)[C@@H](CC(C)C)NC(=O)CN1CCN(CC(=O)O)CCN(CC(=O)O)CCN(CC(=O)O)CC1)C(=O)N[C@H](C(=O)N[C@@H](CC(C)C)C(=O)O)C(C)(C)C [lutetium-177 labelled]	CF-1 mouse, lung	iv, 370 kBq, 1 h	5.08 ± 1.31 %ID/g
N=C(N)NCCC[C@@H]1NC(=O)[C@H](CCCCNC(=O)CCOCCOCCOCCOCCNC(=O)CC[C@H](NC(=O)CCOCCOCCOCCOCCNC(=O)CN2CCN(CC(=O)O)CCN(CC(=O)O)CCN(CC(=O)O)CC2)C(=O)NCCOCCOCCOCCOCCC(=O)NCCCC[C@@H]2NC(=O)[C@@H](Cc3ccccc3)NC(=O)[C@H](CC(=O)O)NC(=O)CNC(=O)[C@H](CCCNC(=N)N)NC2=O)NC(=O)[C@@H](Cc2ccccc2)NC(=O)[C@H](CC(=O)O)NC(=O)CNC1=O [copper-64 labelled]	athymic nu/nu mouse, female, liver	intravenous, 1 h	2.25 ± 0.26 %ID/g
CC(C)C[C@H](NC(=O)[C@@H](CCCCNC(=O)CCCCCNC(=O)CN1CCN(CC(=O)O)CCN(CC(=O)O)CCN(CC(=O)O)CC1)NC(=O)[C@H](Cc1ccc(O)cc1)NC(=O)[C@H](CO)NC(=O)[C@H](Cc1c[nH]c2ccccc12)NC(=O)[C@H](Cc1cnc[nH]1)NC(=O)[C@@H]1CCC(=O)N1)C(=O)N[C@@H](CCCNC(=N)N)C(=O)N1CCC[C@H]1C(=O)NCC(N)=O [indium-111 labelled]	female athymic nude mouse, tumor	intravenous, 0.037 MBq, 4 h	0.15 ± 0.05 %ID/g
N=C(N)NCCC[C@@H]1NC(=O)[C@H](CCCCNC(=S)Nc2ccc(CC3CN(CC(=O)O)CCN(CC(=O)O)CCN3CC(=O)O)cc2)NC(=O)[C@@H](Cc2ccc(O)cc2)NC(=O)[C@H](CC(=O)O)NC(=O)CNC1=O (stereo partly drawn) [gallium-68 labelled]	mouse BALB/c nude, female, kidney	1 h	1.05 ± 0.24 %ID/g

Excerpt of the above:
Structure (SMILES)	system	setting	tissue uptake
Cc1cc(O)cc(C)c1C[C@H](NC(=O)[C@@H]1CCCN1C(=O)[C@H](CCCNC(=N)N)NC(=O)[C@H](CCCNC(=N)N)N(C)C(=O)[C@@H]1CCCN1C(=O)[C@H](CCCCN)NC(=O)[C@@H](CC(C)C)NC(=O)[C@@H](CC(C)C)NC(=O)[C@@H](CC(C)C)NC(=O)[C@@H](CC(C)C)NC(=O)CN1CCN(CC(=O)O)CCN(CC(=O)O)CCN(CC(=O)O)CC1)C(=O)N[C@H](C(=O)N[C@@H](CC(C)C)C(=O)O)C(C)(C)C [lutetium-177 labelled]	CF-1 mouse, lung	iv, 370 kBq, 1 h	5.08 ± 1.31 %ID/g
